Results of several laboratories.
Numbers after ± are the reported error.
UniProt O13828, sequence (whole entry, looked up): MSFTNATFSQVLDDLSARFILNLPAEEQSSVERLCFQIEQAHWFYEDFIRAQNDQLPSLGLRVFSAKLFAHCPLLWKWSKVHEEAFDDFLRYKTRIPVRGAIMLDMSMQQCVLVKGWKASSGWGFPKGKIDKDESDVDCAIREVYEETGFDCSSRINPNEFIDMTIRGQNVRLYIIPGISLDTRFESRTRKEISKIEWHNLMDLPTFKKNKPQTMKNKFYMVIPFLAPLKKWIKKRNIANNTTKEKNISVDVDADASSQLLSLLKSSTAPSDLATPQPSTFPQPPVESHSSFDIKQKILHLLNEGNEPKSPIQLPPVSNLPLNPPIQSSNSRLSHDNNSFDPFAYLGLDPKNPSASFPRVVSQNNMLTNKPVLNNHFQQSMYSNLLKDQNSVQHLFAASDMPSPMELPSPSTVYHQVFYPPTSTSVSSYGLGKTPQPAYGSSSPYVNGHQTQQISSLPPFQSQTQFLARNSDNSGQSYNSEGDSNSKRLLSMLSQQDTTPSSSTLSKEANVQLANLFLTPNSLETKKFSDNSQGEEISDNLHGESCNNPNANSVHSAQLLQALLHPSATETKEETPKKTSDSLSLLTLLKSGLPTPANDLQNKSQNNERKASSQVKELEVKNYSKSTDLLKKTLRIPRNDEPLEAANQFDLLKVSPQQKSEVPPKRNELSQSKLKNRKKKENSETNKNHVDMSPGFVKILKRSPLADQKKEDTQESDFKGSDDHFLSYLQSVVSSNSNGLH
UniProt P57059, sequence (whole entry, looked up): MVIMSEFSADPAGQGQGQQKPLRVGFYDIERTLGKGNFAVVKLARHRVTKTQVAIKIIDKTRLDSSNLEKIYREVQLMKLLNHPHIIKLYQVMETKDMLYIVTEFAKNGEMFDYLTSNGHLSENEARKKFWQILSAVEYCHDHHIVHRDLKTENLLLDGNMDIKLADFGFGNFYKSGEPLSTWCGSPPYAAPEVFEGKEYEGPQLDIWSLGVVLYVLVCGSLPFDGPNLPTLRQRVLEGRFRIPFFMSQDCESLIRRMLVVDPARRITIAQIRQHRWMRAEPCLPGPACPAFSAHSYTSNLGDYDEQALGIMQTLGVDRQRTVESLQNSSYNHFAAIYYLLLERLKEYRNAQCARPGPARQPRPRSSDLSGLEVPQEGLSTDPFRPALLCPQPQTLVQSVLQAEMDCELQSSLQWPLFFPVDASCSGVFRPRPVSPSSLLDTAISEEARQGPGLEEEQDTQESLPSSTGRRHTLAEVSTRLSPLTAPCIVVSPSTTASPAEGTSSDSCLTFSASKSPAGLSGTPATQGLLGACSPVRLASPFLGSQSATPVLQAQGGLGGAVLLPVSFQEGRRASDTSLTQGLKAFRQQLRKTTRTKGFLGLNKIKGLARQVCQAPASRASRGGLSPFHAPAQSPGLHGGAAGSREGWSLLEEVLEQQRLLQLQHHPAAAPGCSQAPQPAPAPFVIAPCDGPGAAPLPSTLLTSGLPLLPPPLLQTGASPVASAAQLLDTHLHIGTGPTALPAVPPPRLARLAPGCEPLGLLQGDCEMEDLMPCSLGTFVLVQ
UniProt P0DMS8, sequence (whole entry, looked up): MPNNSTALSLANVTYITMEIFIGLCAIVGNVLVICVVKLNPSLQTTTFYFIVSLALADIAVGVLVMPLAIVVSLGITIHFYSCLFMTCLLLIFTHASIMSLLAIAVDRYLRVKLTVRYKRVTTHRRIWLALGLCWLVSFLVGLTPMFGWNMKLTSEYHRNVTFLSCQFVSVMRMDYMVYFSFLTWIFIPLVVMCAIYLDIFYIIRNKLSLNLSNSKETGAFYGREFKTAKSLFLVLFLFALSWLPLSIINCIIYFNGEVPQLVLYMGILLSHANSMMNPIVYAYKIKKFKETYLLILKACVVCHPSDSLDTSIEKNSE
UniProt Q13535, sequence (whole entry, looked up): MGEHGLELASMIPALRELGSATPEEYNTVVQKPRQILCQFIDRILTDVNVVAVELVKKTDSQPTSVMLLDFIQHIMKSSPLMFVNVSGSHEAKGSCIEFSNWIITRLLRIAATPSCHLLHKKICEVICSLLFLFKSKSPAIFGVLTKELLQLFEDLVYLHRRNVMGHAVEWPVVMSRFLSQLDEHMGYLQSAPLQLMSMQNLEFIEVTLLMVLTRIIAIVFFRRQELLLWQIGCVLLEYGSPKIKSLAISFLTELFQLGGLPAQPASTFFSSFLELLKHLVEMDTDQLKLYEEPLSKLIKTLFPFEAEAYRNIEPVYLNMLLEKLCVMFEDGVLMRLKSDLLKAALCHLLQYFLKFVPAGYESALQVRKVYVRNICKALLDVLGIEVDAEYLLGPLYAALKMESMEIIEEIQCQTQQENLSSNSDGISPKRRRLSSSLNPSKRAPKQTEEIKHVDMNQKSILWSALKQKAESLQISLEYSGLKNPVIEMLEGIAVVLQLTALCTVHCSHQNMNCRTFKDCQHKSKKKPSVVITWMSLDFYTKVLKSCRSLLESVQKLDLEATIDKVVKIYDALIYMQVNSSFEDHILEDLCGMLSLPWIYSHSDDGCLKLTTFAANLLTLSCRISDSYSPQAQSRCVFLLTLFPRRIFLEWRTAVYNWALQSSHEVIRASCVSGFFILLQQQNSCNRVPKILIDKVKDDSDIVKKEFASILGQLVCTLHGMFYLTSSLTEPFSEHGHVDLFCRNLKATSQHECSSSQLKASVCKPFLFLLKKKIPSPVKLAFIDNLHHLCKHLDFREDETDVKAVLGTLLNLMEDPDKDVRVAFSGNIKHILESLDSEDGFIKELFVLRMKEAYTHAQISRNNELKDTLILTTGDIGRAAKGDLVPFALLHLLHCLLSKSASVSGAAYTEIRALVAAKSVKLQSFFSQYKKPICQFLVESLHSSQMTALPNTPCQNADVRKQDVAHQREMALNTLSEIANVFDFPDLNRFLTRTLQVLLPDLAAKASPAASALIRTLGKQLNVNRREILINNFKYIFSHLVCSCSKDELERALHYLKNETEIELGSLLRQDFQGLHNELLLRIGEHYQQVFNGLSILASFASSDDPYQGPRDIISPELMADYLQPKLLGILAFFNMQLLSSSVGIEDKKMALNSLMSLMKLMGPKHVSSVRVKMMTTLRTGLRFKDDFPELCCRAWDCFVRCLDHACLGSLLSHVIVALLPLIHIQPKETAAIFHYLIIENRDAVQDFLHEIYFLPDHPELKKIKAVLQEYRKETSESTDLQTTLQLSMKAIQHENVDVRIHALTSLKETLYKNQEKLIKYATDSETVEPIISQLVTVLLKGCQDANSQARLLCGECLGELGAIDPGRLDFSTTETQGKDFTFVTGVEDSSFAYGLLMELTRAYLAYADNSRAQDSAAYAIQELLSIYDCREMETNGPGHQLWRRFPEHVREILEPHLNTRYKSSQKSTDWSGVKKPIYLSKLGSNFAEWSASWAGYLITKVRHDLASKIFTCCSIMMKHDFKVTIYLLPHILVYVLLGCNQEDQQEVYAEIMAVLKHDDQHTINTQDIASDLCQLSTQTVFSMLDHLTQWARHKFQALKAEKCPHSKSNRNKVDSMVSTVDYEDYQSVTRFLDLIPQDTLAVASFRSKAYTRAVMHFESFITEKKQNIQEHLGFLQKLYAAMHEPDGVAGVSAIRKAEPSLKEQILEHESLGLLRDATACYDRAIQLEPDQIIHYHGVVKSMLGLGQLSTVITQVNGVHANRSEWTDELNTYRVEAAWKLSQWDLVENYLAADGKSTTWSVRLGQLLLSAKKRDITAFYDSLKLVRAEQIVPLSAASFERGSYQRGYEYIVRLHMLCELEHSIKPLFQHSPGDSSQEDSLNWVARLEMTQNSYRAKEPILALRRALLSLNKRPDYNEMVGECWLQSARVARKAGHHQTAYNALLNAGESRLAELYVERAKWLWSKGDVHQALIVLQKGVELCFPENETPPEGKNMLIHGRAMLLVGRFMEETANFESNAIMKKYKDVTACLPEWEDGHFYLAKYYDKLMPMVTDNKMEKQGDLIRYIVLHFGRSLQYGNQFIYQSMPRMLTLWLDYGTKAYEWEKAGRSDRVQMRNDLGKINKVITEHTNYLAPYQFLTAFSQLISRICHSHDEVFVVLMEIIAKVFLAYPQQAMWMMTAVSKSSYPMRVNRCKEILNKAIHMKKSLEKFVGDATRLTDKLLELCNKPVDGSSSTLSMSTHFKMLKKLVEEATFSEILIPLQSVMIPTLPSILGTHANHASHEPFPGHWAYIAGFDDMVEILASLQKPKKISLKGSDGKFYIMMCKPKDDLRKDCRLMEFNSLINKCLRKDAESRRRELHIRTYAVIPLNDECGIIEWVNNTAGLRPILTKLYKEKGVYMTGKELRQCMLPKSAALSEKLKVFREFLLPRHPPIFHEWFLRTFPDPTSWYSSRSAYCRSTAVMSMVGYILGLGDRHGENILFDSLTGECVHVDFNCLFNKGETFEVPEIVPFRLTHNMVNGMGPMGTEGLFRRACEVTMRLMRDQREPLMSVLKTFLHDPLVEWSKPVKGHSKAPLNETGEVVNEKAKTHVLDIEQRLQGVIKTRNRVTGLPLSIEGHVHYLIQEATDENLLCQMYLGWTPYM
UniProt O43148, sequence (whole entry, looked up): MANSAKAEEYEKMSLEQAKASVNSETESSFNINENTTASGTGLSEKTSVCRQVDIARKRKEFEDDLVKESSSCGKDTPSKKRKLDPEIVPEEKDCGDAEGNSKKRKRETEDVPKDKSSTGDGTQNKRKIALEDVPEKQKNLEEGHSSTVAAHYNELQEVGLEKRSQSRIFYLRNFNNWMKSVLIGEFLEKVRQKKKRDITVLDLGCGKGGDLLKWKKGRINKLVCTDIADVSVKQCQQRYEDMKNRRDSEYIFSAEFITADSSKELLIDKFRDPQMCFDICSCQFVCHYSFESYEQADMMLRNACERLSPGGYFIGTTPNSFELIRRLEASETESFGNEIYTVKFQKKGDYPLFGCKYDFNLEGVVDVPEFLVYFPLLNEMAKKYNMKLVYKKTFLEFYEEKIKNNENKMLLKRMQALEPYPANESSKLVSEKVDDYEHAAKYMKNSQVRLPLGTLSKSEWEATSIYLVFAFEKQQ

O=S(=O)(F)CCc1cn(-c2ccc(Br)cc2)nn1  inhibition (ache (Electrophorus electricus, UniProt O42275); Ellman; 20 µM): 34.2 ± 1.3%
CCN(N=Cc1cnc2ccc(Br)cn12)S(=O)(=O)c1cc([N+](=O)[O-])ccc1C  inhibition (PIK3CA (Homo sapiens, UniProt P42336, K776A); enzyme activity; 60 nM): 27%
N#Cc1ccc(N2N=C3c4ccc(C(=O)O)cc4CCC3C2C2CCCC2)cc1Cl (stereo not drawn)  inhibition (EHMT1 (Homo sapiens, UniProt Q9H9B1); enzyme activity, inhibitor; 10 µM): 1%
BP(=O)(OC[C@H]1O[C@@H](n2c[n+](C)c3c(O)nc(N)nc32)[C@H](O)[C@@H]1O)OP(=O)([O-])CP(=O)(O)O (stereo partly drawn)  inhibition (mRNA decapping complex subunit 2, with Dcp1 (dcp2, Schizosaccharomyces pombe, UniProt O13828); 200 µM, 0.25 h): 43%
CC(C)[C@H]1NC(=O)C[C@H]2/C=C/CCSSC[C@@H](NC1=O)C(=O)N[C@H](Cc1cccc3ccccc13)C(=O)NCC(=O)O2  inhibition (ROS1 (Homo sapiens, UniProt P08922); enzyme activity, inhibitor; 10 µM): 1.6%
C[C@H](NCc1ccc(-c2ccc(C(F)(F)F)cc2)cc1)C(N)=O  inhibition (GABBR1 (Homo sapiens, UniProt Q9UBS5); radioligand binding, SafetyScreen panel; 1 µM, species human, with: 4.0 nM [3H]CGP-54626): -4%
CN[C@@H]1[C@H](O)[C@H](NC)[C@H]2O[C@]3(O)[C@H](O[C@@H]2[C@H]1O)O[C@H](C)C[C@H]3NC(=O)Cc1ccc(Cl)cn1  inhibition (Estrogen receptor (ESR1, Homo sapiens, UniProt P03372); ligand displacement, radioligand; 10 µM): -24%
CN(C)[C@H]1C[C@@]23CC[C@@]4(O2)C(=CC[C@]2(C)[C@@H](c5ccc6ccncc6c5)CC[C@H]24)C=C3[C@@H](O)[C@@H]1O  inhibition (ATR (Homo sapiens, UniProt Q13535); ATP probe labelling, inhibitor, KiNativ profiling; 0.1 µM): -2.2%
O=C(CN1CN(c2ccccc2)C2(CCN(C(=O)c3cnc4[nH]ncc4c3)CC2)C1=O)NCC(F)(F)F  inhibition (SIK1 (Homo sapiens, UniProt P57059); inhibitor; concentration not given): < 50%
CC(=O)NC[C@@H]1[C@@H](O)C[C@H]2[C@H](O)C[C@@H](CO)N12  inhibition (human placental β-N-acetylglucosaminidase; 0.0856 µM, run 1, with: p-nitrophenyl GlcNAc): 55.3%
CS(C)(=O)=Nc1ccc(-c2ccc(-c3nc4cc(O[C@@H]5CO[C@H]6[C@@H]5OC[C@H]6O)[nH]c4cc3F)cc2)cc1  inhibition (ADORA3 (Homo sapiens, UniProt P0DMS8); calcium signal, antagonist; 10 µM): 7%
O=C(NC1CCN(c2ncnc3[nH]cnc23)CC1)c1cccc(NS(=O)(=O)c2ccc(C(F)(F)F)cc2)c1  inhibition (RNMT (Homo sapiens, UniProt O43148); enzyme activity, inhibitor; 48.83 nM): 10.3%

Repeated from above:
O=C(NC1CCN(c2ncnc3[nH]cnc23)CC1)c1cccc(NS(=O)(=O)c2ccc(C(F)(F)F)cc2)c1  inhibition (RNMT (Homo sapiens, UniProt O43148); enzyme activity, inhibitor; 48.83 nM): 10.3%
O=S(=O)(F)CCc1cn(-c2ccc(Br)cc2)nn1  inhibition (ache (Electrophorus electricus, UniProt O42275); Ellman; 20 µM): 34.2 ± 1.3%
